Results pooled from the literature.
Numbers after ± are the reported error.
Alpha-carbonic anhydrase: Alpha-carbonic anhydrase (Enterococcus faecium, UniProt Q3XYE8)
USP49 ZnF-UBD domain: Ubiquitin carboxyl-terminal hydrolase 49, ZnF-UBD domain (USP49, Homo sapiens, UniProt Q70CQ1)
PLEKHA5 PH domain: Pleckstrin homology domain-containing family A member 5, PH domain (PLEKHA5, Homo sapiens, UniProt Q9HAU0)
Ubiquitin carboxyl-terminal hydrolase 39 ZnF-UBD domain: Ubiquitin carboxyl-terminal hydrolase 39, ZnF-UBD domain (Homo sapiens, UniProt Q53GS9)
ZBTB11/CRBN: ZBTB11/CRBN (Homo sapiens, UniProt O95625+Q96SW2)

CC[C@@H]1[C@H](F)C(=O)N[C@@H]1COc1nccc2cc(C(N)=O)c(OC)cc12
IC50 (CSNK1G2 (Homo sapiens, UniProt P78368); ATP-site probe binding, ActivX profiling; THP-1 cell lysate; Lys2 site): 0.096 µM

NS(=O)(=O)c1nnc(NC(=O)COC2CCCCC2)s1
Ki (Alpha-carbonic anhydrase; CO2 hydration, inhibitor, stopped-flow kinetics): 0.0137 µM

O=C(O)c1cccnc1Nc1cccc(C(F)(F)F)c1
EC50 (BK channel alpha subunit (Cavia porcellus, UniProt A0A286XP95); delayed rectifier K+ current, activator; dispersed vascular smooth muscle cells, guinea pig, SMA arteriole; at +40 mV): 371 µM

COc1ccc(C=C2SC(=O)N(C(C)C(=O)O)C2=O)cc1 (centres unmarked)
Kd (USP49 ZnF-UBD domain): > 1000 µM

CCOc1ccccc1C(=O)CC(SCc1ccc(Cl)cc1)C(=O)O (centres unmarked)
Ki (PLEKHA5 PH domain; PLEKHA5 PI(4,5)P2 binding, fluorescence polarization; with: BODIPY-PI(4,5)P2 tracer): 25.4 ± 3 µM

Nc1nc(=O)c2c([nH]1)NCC(CNc1ccc(C(=O)N[C@@H](CCC(=O)O)C(=O)O)cc1)N2C=O (mixture of isomers)
z-scored log2 fold change (binding, equilibrium dialysis LC-MS; 5 µM, thermostabilized A2AR-BRIL construct; reference: no-protein control, direction not given): 0.111

CCC1(c2cnc[nH]2)Cc2ccccc2C1
Kd (Cytochrome P450 2A6 (CYP2A6, Homo sapiens, UniProt P11509); binding; 20 min, pH 7.4, purified protein, 2% DMSO): 8.72 µM

O=C(O)CCN1C(=O)c2ccccc2S1(=O)=O
Kd (Ubiquitin carboxyl-terminal hydrolase 39 ZnF-UBD domain): > 1000 µM

CCC(C)(NCCc1ccc(C(F)(F)F)cc1Cl)c1cccc(NC2=CC(=O)N(C3CCC(=O)NC3=O)C2=O)c1 (centres unmarked)
DC50 (ZBTB11/CRBN; degrader; human cells): 3.7 ± 1.3 µM

NS(=O)(=O)c1nnc(NC(=O)CN2CCC3(CC2)CC3)s1
Ki (Alpha-carbonic anhydrase; CO2 hydration, inhibitor, stopped-flow kinetics): 0.0245 µM

CC(=O)c1c(C)c2cnc(Nc3ccc(N4CCN(CCCOc5ccc(CN6CCC(c7ccc8c(c7)CN(C7CCC(=O)NC7=O)C8=O)CC6)cc5)CC4)cn3)nc2n(C2CCCC2)c1=O (centres unmarked)
DC50 (CDK4 (Homo sapiens, UniProt P11802); protein degradation, degrader, immunoblot; Jurkat; 4 h): 0.01 µM

O=C1CCC(N2C(=O)C=C(Nc3cccc(C4(NCCc5ccc(Cl)c(C(F)(F)F)c5)CCC4)c3)C2=O)C(=O)N1 (centres unmarked)
DC50 (ZBTB11/CRBN; degrader; human cells): 0.28 ± 0.12 µM

COc1cc(Cl)c(S(=O)(=O)N2CCCCC2)cc1Cl
Kb (Melanopsin (OPN4, Homo sapiens, UniProt Q9UHM6); calcium release, antagonist; CHO cells expressing OPN4): 0.0064 µM

O=C1CCC(N2C(=O)C=C(Nc3cccc(C4(NCCc5ccc(C(F)(F)F)c(Cl)c5)CCCC4)c3)C2=O)C(=O)N1 (centres unmarked)
DC50 (ZBTB11/CRBN; degrader; human cells): 0.2 ± 0.13 µM

NC(=O)[C@H]1CCCN1C(=O)CCC(=O)O
Kd (Ubiquitin carboxyl-terminal hydrolase 39 ZnF-UBD domain): > 1000 µM

Cc1cc(NC2=CC(=O)N(C3CCC(=O)NC3=O)C2=O)cc(C(C)(C)NCCc2ccc(C(F)(F)F)c(Cl)c2)c1 (centres unmarked)
DC50 (ZBTB11/CRBN; degrader, HiBiT luminescence, measured: endogenous HiBiT-tagged protein): 11 µM

Cc1ccccc1CC(=O)Nc1nnc(S(N)(=O)=O)s1
Ki (Alpha-carbonic anhydrase; CO2 hydration, inhibitor, stopped-flow kinetics): 0.022 µM

CCn1c(-c2nc3cc(C(=O)N4CCC[C@@H](N)C4)cc(OC)c3n2C)cc2cccnc21
EC50 (HTR1B (Homo sapiens, UniProt P28222); agonist, GTPγS binding): 2 µM

NS(=O)(=O)c1nnc(NC(=O)CCC2CCC(F)(F)CC2)s1
Ki (Alpha-carbonic anhydrase; CO2 hydration, inhibitor, stopped-flow kinetics): 0.0284 µM

Cc1ncsc1-c1ccc(CNC(=O)[C@@H]2C[C@@H](O)CN2C(=O)[C@@H](NC(=O)CCCCCCCCCCCC(=O)NCCCCC#Cc2cccc(-c3nn(-c4nc(C(=O)O)cs4)c(CC4CC4)c3Cc3ccc(S(N)(=O)=O)cc3)c2)C(C)(C)C)cc1
DC50 (LDHA (Homo sapiens, UniProt P00338); degrader, western blot; PANC-1; 48 h): 0.038 ± 0.0005 µM

C[C@H](Cc1ccccc1)Nc1ncnc2c1ncn2[C@@H]1O[C@H](CO)[C@@H](O)[C@H]1O
Kd (adenosine A1 receptor, sheep; competition binding; striatum membranes; low-affinity site, two-site model, with: 0.009 nM [3H]DPCPX): 0.12 ± 0.06 µM

Nc1ncnc2c1ncn2[C@@H]1O[C@H](COP(=O)(O)OP(=O)(O)NP(=O)(O)O)[C@@H](O)[C@H]1O
apparent Kd (Inositol-tetrakisphosphate 1-kinase (Homo sapiens, UniProt Q13572); binding, microscale thermophoresis; with: increasing ATP): increased

O=C1CCC(N2C(=O)C=C(Nc3cccc(S(=O)(=O)NCCc4ccc(C(F)(F)F)c(Cl)c4)c3)C2=O)C(=O)N1 (centres unmarked)
DC50 (ZBTB11/CRBN; degrader, HiBiT luminescence, measured: endogenous HiBiT-tagged protein): 37 µM

O=C(O)CN1Cc2ccccc2C1=O
Kd (USP49 ZnF-UBD domain): 525 µM

NS(=O)(=O)c1nnc(NC(=O)CCC2CCCCO2)s1 (centres unmarked)
Ki (Alpha-carbonic anhydrase; CO2 hydration, inhibitor, stopped-flow kinetics): 0.0339 µM

O=C(Nc1ccn(Cc2ccc(O)cc2C(F)(F)F)n1)c1c(F)cccc1F
EC50 (Trpv4 (Rattus norvegicus, UniProt Q9ERZ8); ion channel activity, agonist; cells overexpressing Trpv4; rat receptor): > 10 µM

O=C(O)CCC(=O)c1cccs1
Kd (Ubiquitin carboxyl-terminal hydrolase 39 ZnF-UBD domain): > 1000 µM

CCOc1ccc(C(=O)CC(SCc2ccc(Cl)cc2)C(=O)O)cc1OCC (centres unmarked)
Ki (PLEKHA5 PH domain; PLEKHA5 PI(4,5)P2 binding, fluorescence polarization; with: BODIPY-PI(4,5)P2 tracer): 20 ± 2.8 µM

NS(=O)(=O)c1nnc(NC(=O)CN2CCCC(F)(F)C2)s1
Ki (Alpha-carbonic anhydrase; CO2 hydration, inhibitor, stopped-flow kinetics): 0.0297 µM

CCC(C)(NCCc1ccc(Cl)c(Cl)c1)c1cccc(NC2=CC(=O)N(C3CCC(=O)NC3=O)C2=O)c1 (centres unmarked)
DC50 (ZBTB11/CRBN; degrader; human cells): 1.2 ± 3.2 µM

O=C(O)CCc1ccccc1OCc1ccccn1
Kd (USP49 ZnF-UBD domain): > 1000 µM

O=C1CCC(N2C(=O)C=C(Nc3cccc(C(NCCc4ccc(C(F)(F)F)c(Cl)c4)c4ccccc4)c3)C2=O)C(=O)N1 (centres unmarked)
DC50 (ZBTB11/CRBN; degrader, HiBiT luminescence, measured: endogenous HiBiT-tagged protein): 25 µM

Cc1cccc(CC(=O)Nc2nnc(S(N)(=O)=O)s2)c1
Ki (Alpha-carbonic anhydrase; CO2 hydration, inhibitor, stopped-flow kinetics): 0.0517 µM

OC[C@H]1OC(O)[C@H](O)[C@@H](O)[C@@H]1O (some centres unmarked)
Ki (Hexokinase-3 (HK3, Homo sapiens, UniProt P52790); enzyme activity, substrate inhibitor, coupled G6PDH; partial inhibition model, with: ATP 20 mM): 2000 ± 1000 µM

CN1CCN(c2ccc(Nc3ncc4cc(C#N)c(=O)n(C5CCCC5)c4n3)cc2)CC1
IC50 (NLK (Homo sapiens, UniProt Q9UBE8)): 0.0383 µM

COc1ccc(C[C@H](N)C(=O)N[C@H]2[C@@H](O)[C@H](n3cnc4c(N(C)C)ncnc43)O[C@@H]2CO)cc1
coregulator peptide Kd change (Nuclear receptor subfamily 5 group A member 2, ligand-binding domain (NR5A2, Homo sapiens, UniProt O00482); corepressor binding, fluorescence polarization; concentration not given, ligand-binding domain, with: DAX1 peptide; reference: DMSO): no effect

COc1cc2c(cc1OC)C1CC(=O)C(CC(C)C)CN1CC2 (centres unmarked)
IC50 (SLC18A2 (Homo sapiens, UniProt Q05940, I308V); FFN206 uptake, inhibitor, fluorescence imaging; I308V mutant, with: FFN206 5 µM): 0.0429 µM

NS(=O)(=O)c1cnc(NC(=O)CCc2ccccc2)s1
Ki (Alpha-carbonic anhydrase; CO2 hydration, inhibitor, stopped-flow kinetics): 0.525 µM

Cc1nc(F)ccc1-c1cc(Cn2ccn(C)c2=N)cc(C(=O)NCc2ccc(Cl)c(Cl)c2)c1
IC50 (WD repeat-containing protein 5, MLL1 complex (WDR5, Homo sapiens, UniProt P61964); MLL1 methyltransferase activity, inhibitor; with: H3 peptide substrate): 0.0199 ± 0.0096 µM

COc1cccc(C(=O)O)c1N
z-scored log2 fold change (binding, equilibrium dialysis LC-MS; 5 µM, thermostabilized A2AR-BRIL construct; reference: no-protein control, direction not given): 0.305

O=C(O)Cn1cnc2ccccc2c1=O
Kd (Ubiquitin carboxyl-terminal hydrolase 39 ZnF-UBD domain): > 1000 µM

Some of these lines once more:
O=C(O)CCN1C(=O)c2ccccc2S1(=O)=O
Kd (Ubiquitin carboxyl-terminal hydrolase 39 ZnF-UBD domain): > 1000 µM

CN1CCN(c2ccc(Nc3ncc4cc(C#N)c(=O)n(C5CCCC5)c4n3)cc2)CC1
IC50 (NLK (Homo sapiens, UniProt Q9UBE8)): 0.0383 µM
